Assay results from different studies.
“And” joins repeats or separate records; there may be more than shown.
Target: Muscarinic acetylcholine receptor M3 (CHRM3, Homo sapiens, UniProt P20309)

For `COc1ccc(F)cc1S(=O)(=O)Nc1cnc2c(c1)C(=O)NCCO2`, the inhibition was 1% (ligand displacement, radioligand; 10 µM).
With `CCCO[C@H]1[C@H](O)[C@@H](N)[C@@H](O[C@H]2[C@H](O[C@@H]3O[C@H](CO)[C@@H](O[C@H]4O[C@@H](CN)[C@@H](O)[C@H](O)[C@H]4N)[C@H]3O)[C@@H](O)[C@H](N)C[C@@H]2N)O[C@@H]1CO` the specific binding was 20% (radioligand binding; 10 µM, 1% DMSO).
With `CCc1nnc(-c2c(OC)cc(-c3cnc4cc(-c5cnn(C)c5)ccn34)cc2OC)o1` the remaining binding was 96.8% (antagonist radioligand, radioligand binding; 10 µM, SafetyScreen44 M3 mean; lower = stronger displacement).
`Cc1sc2c(c1C)C(c1ccc(Cl)cc1)=NC(CC(=O)OC(C)(C)C)c1nnc(C)n1-2` (stereo not shown) gave an inhibition of -4% (ligand displacement, radioligand; 1 µM).
With `N[C@H](C(=O)N1CCCC1)C1CCN(c2nccc3c(-c4ncc(Cl)cc4Cl)cccc23)CC1` the response was 4% (functional response, agonist; 10 µM).
With `C/C(=N\OCCCN1CCCCC1)c1ccc(C(F)(F)F)cc1` the activation was 6.92% (agonist, IP-One; 10 µM).
For `C[C@H](NCc1ccc(-c2ccc(C(F)(F)F)cc2)cc1)C(N)=O`, “inhibition of binding” read 1% (radioligand binding; 1 µM, added: [3H]N-methylscopolamine 0.80 nM).
With `O=C(O)c1ccc(-c2nc(-c3ccccc3Cl)c3sccn23)cc1` the specific binding was 105% and 104% (radioligand binding; 10 µM, safety screen panel; relative to: control).
`Cc1cc(Nc2nc(C[C@@]3(C(=O)O)CCN(Cc4cccc(Cl)c4F)[C@H](C)C3)cc(C)c2F)[nH]n1` gave an inhibition of 10.8% (inhibitor; 10 µM).
`Cc1cc(-c2ccc3ccccc3c2)nnc1NCCN1CCN(C)CC1`: antagonist activity “negative” (antagonist; concentration not given).
For `CS(C)(=O)=Nc1ccc(-c2ccc(-c3nc4cc(O[C@@H]5CO[C@H]6[C@@H]5OC[C@H]6O)[nH]c4cc3F)cc2)cc1`, the inhibition was 48% (calcium signal, antagonist; 10 µM).
The inhibition of `CN[C@@H]1[C@H](O)[C@H](NC)[C@H]2O[C@]3(O)[C@H](O[C@@H]2[C@H]1O)O[C@H](C)C[C@H]3NC(=O)Cc1cc(Cl)ccn1` is reported as 19% (ligand displacement, radioligand; 10 µM).
`CCN(CC)CCOc1ccc(-c2nnn(Cc3ccc(OC)cc3)c2N)cc1` has an inhibition of -0.96% (radioligand binding; HEK293; 10 µM, safety profiling).

Some of these lines once more:
For `C[C@H](NCc1ccc(-c2ccc(C(F)(F)F)cc2)cc1)C(N)=O`, “inhibition of binding” read 1% (radioligand binding; 1 µM, added: [3H]N-methylscopolamine 0.80 nM).
